Results of several laboratories.
Every numbered part comes from another study and shows a few of its results, in no order. Substitutions count along the parent as printed.

Study 1
Target: Interferon regulatory factor 7, full length, phosphomimetic (IRF7, Homo sapiens, UniProt Q92985, residues 1-503, S101K/S471D/S472D/S475D/S476D/S477D/S483D/S484D/S487D)
Method: protein-binding microarray
Molecule type: double-stranded DNA, one strand shown
Sample: in vitro
Tested at: 250 nM
Setting: 60-bp whole probe
Together with: salmon DNA 0.4 mg/ml
Relative to: random background probes
Reading: higher = stronger binding
Constant ends, left off below: GCCTAGCAC … GTCTTGATTCGCTTGACGCTGCTG
Construct (chain): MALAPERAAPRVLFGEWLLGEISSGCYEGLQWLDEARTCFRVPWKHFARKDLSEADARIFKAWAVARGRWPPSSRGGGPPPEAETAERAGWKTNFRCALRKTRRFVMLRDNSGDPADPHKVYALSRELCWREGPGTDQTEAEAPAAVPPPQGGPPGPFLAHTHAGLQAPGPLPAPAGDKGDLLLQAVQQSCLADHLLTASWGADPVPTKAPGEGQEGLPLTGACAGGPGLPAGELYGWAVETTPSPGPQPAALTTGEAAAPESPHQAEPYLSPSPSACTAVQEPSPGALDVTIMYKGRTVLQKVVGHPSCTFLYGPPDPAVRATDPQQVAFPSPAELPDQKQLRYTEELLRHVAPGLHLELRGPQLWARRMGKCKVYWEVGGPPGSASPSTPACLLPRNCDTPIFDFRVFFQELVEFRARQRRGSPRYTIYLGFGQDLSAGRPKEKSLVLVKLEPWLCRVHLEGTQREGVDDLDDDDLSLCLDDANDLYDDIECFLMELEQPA
| Sequence | log fluorescence [z-score] |
| --- | --- |
| TTAGATATCAGTCTCGATCAGTGCTAG | 0.285 |
| TCCACTTTCTTTTGCTTGTTGTGCTAG | 1.22 |
| GACGAACTGAGTTTCCAGACGTGCTAG | 0.335 |
| TCATGTGTGCATCTATCACTGTGCTAG | -0.375 |
| GACGGACTGCTTATCCTAACGTGCTAG | -0.0638 |
| GACGGAATCGACACTGGGGACGTGCTA | -0.687 |
| GACGGTTTCGGTATCGGCACGTGCTAG | 10.2 |
| TTACATCTCAGTATCGATTAGTGCTAG | 1.17 |
| AAAATTTTGCTTCTAGAACAGTGCTAG | -0.0892 |
| TCAGATATGCGGTAAGGGACTGTGCTA | -0.436 |
| CCAACACTCGGTTTCCAAATGTGCTAG | 3.96 |
| GACGAATTCAGTATCGAGACGTGCTAG | 0.372 |
| ATTGCTTTCTCTTTCATTGCGTGCTAG | 1.21 |
| AGGCAGGCATAAAGGAAAAAGTGCTAG | -0.688 |
| TTAGGACTGTGTCTCGGTTAGTGCTAG | 0.403 |
| TTAGGACAGGGGTATCGGTTAGTGCTA | 0.43 |
| TCAAGGTTCTCTTTTATACTGTGCTAG | 1.17 |
| GACGGTATCCTTCTCCTGGCGTGCTAG | 0.218 |

Study 2
Target: CCNB1, cyclin fold, Cln2 fusion (human)
Method: yeast growth competition, sequencing
Sample: yeast
Setting: strong parent motif
Relative to: not given
Reading: higher = stronger binding
Starting sequence: E2F1 docking peptide (human); PPVKRRLDFETDH; partner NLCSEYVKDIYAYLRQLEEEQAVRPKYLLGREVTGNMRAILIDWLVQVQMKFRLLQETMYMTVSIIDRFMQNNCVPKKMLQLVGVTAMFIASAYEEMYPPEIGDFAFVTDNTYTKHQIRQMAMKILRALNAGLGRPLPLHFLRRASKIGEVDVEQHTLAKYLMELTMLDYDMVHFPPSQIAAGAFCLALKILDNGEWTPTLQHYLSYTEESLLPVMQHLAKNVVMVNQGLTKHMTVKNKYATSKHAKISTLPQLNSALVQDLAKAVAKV
| Substitution | normalised enrichment score |
| --- | --- |
| V3N | 0.0229 |
| D12P | 5.34 |
| F9W | 2.51 |
| F9C | 0.281 |
| L7T | 0.058 |
| R5P | 0.125 |
| D12F | 4.67 |
| K4W | 3.46 |
| R6W | 1.92 |
| P2G | 5.19 |
| R6V | 3.32 |
| V3E | 1.14 |
| K4F | 4.5 |
| D12Q | 4.78 |
| D8N | 5.27 |
| L7H | 0.505 |

Study 3
Target: RNA binding protein fox-1 homolog 2, RRM domain, GST-SBP tag (RBFOX2, Homo sapiens, UniProt O43251-10, residues 100-194)
Method: RNA Bind-n-Seq
Molecule type: RNA
Sample: in vitro
Tested at: 365 nM
Setting: natural RNA segment, single round, ends assumed
Relative to: no-protein control
Reading: higher = stronger binding
Construct (chain): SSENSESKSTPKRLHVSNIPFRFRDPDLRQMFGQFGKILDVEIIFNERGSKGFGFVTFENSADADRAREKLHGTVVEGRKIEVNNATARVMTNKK
| Sequence | RBNS enrichment (R) |
| --- | --- |
| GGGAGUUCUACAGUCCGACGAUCCUAGUAUCCAUGACCAAACUAUCCCUGACACAUGAGGACAGGGGCCUCUUCUGGCUGUCAGGAGCAAAGCCUGAAGACUUGGAGCUGCAGGACUGGAAGAACAGUGGAGCUGGAAUUCUCGGGUGCCAA | 0.929 |
| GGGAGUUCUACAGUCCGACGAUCUUGCAGCCAGCGCUGCCCCAUGCCCUUCUGAUCCUCCCCCUCUCCCACCGCCCUCCCUGGAUAGGAUUUGGGCAGGGUUUCAGUCUCCACUGAUUGCCGCCUUGUUCUCCUGGAAUUCUCGGGUGCCAA | 0.319 |
| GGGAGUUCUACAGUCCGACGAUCCAAGAUGCCCUGUGCAGCUGCCCGAGGGUCUCCGCCCACCCCGGCCGGACUUUGAUCCCCCCGAAGUCUUCACAGGCACUGCAUCGGGUUGUCUGGCGCCCUUUUCCUCCUGGAAUUCUCGGGUGCCAA | 0.405 |
| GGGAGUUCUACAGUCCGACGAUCGCGGAGACCAUUUCCAGGCCUUAUUGAGACCAGACCCCAAGUCCCCCACCCCCAUCCUGCUCCAGCGUUUCCUCUAACAGGGACCAGCUCUCCGCUUUGCCCCCACGGGGUGGAAUUCUCGGGUGCCAA | 0.363 |
| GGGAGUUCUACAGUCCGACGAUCCAGCACAGCAGGGAGUACACGAACUGAUAGAGACCUGUGCUCAGCAGCCAGGUUCUUCAGGUGCUUCUUAAUCAGCCCCUCUGCUCCAGAUGGACCUUUCCCUCCAUGUAUGGAAUUCUCGGGUGCCAA | 0.276 |
| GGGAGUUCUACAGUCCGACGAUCGAAAGCUGCCGUCUCUUUGGCAGUCUGAUGCAGAGCCUGCACUCUGGCACUCGCUGAAGAAUCUGGAAGGUUGCGGUUUGCUCUUCCAGUGUUCGGGGGCCUCUGGCUGCUGGAAUUCUCGGGUGCCAA | 0.214 |
| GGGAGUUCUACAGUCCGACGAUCACUCUGUUUAGUGACUUAAUUGUAUCCCACCAAUUACUGCUGGUGACUUACUCACCCUUGUACAGUGUUUGCAUAGCAGAGUGAAGGUUACUUAUUACCCUCUUUCUCUCUGGAAUUCUCGGGUGCCAA | 0.31 |
| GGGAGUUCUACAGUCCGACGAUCAGCAUCCUAAGUGUUAAGGCUGGCUUUAGCAAGGAUUAUGAUCAAUACAACUAUUUUUACUACAAUAAUUAUUUUUCUUCUAUGAGACCCAGAAUCCUGACUCCAUUUGCUGGAAUUCUCGGGUGCCAA | 0.645 |

Study 4
Target: Phosphate system positive regulatory protein PHO4, full length, GST-tagged (PHO4, Saccharomyces cerevisiae, UniProt P07270, residues 1-312)
Method: competition protein-binding microarray
Molecule type: double-stranded DNA, one strand shown
Sample: in vitro
Tested at: 2 µM
Setting: whole 60-bp probe, lowest competitor level
Together with: Cbf1 competitor, 0.05 µM
Reading: higher = stronger binding
Construct (chain): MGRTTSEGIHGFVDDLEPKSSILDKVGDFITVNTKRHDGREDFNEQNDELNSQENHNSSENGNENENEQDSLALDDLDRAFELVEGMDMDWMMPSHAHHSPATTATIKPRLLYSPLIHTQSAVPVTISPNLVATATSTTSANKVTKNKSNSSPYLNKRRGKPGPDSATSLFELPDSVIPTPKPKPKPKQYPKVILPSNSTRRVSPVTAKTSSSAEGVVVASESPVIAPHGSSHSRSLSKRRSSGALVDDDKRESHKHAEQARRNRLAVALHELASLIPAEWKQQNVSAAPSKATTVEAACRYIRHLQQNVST
| Sequence | fluorescence intensity [a.u.] |
| --- | --- |
| TTTGCCTCGGCCTGCCGCGTGGTGATGGTAGTTTGAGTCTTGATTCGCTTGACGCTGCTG | 8430 |
| CGTCCTAGCGATTGACATGTGGGTGCCATGAGGAAGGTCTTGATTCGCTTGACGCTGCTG | 12200 |
| AGTAAAAGTCGTCGGCACGGGCCCCAAACGATAGAGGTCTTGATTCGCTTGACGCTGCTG | 11600 |
| GTCTTGTCTCATTGGCAAGTGGGTGTCCCCACTTCAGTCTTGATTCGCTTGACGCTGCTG | 4920 |
| TTGTTTTATTGCCTTCACGTTTATTAATGCTCAAACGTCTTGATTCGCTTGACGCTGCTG | 8630 |
| AAATTACTAAGTTGTCCTGTGGGTGACGCCGTATGAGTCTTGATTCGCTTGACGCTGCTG | 4330 |
| CGTCCTAGTGATTGCGGGGTGGGTGCCATGAGGAAGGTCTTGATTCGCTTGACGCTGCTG | 6990 |
| GGAGCAAATAGTTGAAAGGTGTGCCATAAGAAGGTGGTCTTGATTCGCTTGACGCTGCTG | 7490 |
| TGGTAGTAACCAAAGCACGCTTGTCCTTGTGTTCGGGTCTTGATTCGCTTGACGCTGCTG | 8800 |
| CGCATATTTTACTGTCATGCTTCTGTCAAGAAAAAGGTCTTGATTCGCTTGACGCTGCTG | 6520 |
| CGTCCTAGTGATTGTACCGTGGGTGCCATGAGGAAGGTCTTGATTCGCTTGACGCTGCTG | 7620 |
| CGTCCTAGTGATTTTCACGTGCGATCCATGAGGAAGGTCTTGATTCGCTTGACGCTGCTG | 14800 |
| CGTCCTAGTGATTGTCACGCAACTTCCATGAGGAAGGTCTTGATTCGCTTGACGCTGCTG | 5560 |
| CTTGGCACACTCTGTTGCGTGGTGAAAATAGAACCAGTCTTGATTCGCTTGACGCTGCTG | 7230 |
| AGCAATACCTTTCGGCACGTTCTTGAAAATTCCACAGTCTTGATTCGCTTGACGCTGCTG | 13800 |
| AAGAGCAAGTTGTTACACGTGTGAATCTGGCACATTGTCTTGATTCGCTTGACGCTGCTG | 14600 |
| GCCATTCTCCATTCACACGTCAATCAGTCGTATTGGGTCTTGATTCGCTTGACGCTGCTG | 4740 |
| CATACCCAACCTTGTCACATAACTTAAGATATTTGTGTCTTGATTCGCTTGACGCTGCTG | 4140 |
| GGAAAGCAACGAGTGATCGTGACGGCATAATTGCCTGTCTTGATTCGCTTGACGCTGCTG | 6110 |

Repeated from above (study 4):
| Sequence | fluorescence intensity [a.u.] |
| --- | --- |
| CGTCCTAGTGATTGCGGGGTGGGTGCCATGAGGAAGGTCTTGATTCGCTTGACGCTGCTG | 6990 |
| GGAGCAAATAGTTGAAAGGTGTGCCATAAGAAGGTGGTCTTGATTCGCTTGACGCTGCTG | 7490 |
| TGGTAGTAACCAAAGCACGCTTGTCCTTGTGTTCGGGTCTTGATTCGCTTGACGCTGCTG | 8800 |
| CGCATATTTTACTGTCATGCTTCTGTCAAGAAAAAGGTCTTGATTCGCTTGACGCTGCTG | 6520 |
| CGTCCTAGTGATTGTACCGTGGGTGCCATGAGGAAGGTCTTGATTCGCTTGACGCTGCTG | 7620 |
| CGTCCTAGTGATTTTCACGTGCGATCCATGAGGAAGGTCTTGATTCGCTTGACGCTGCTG | 14800 |
| CGTCCTAGTGATTGTCACGCAACTTCCATGAGGAAGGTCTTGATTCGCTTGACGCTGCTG | 5560 |
